Experimental data pooled from the literature.
Each numbered part is a random draw from the data of one study; scales do not carry over between parts.

Set 1
Target: RNA binding protein fox-1 homolog 2, RRM domain, GST-SBP tag (RBFOX2, Homo sapiens, UniProt O43251-10, residues 100-194)
Technique: RNA Bind-n-Seq
Form: RNA
Sample: in vitro
Concentration: 365 nM
Notes: natural RNA segment, single round, ends assumed
Reference: no-protein control
Direction: higher = stronger binding
Constant ends, left off below: GGGAGUUCUACAGUCCGACGAUC … UGGAAUUCUCGGGUGCCAA
Target sequence (chain): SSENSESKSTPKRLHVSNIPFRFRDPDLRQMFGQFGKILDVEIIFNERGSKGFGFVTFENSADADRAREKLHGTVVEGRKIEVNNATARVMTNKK
Under “RBNS enrichment (R)”, `GUUGACAGGUGGGCCCAGUGAACUUUUCCAGUAAAUGAAGCAAGCACUGAAUAAAAACCUCCUGAACUGGGAACAAAGAUCUACAGGCAAGCAAGAUGCCCACACAACAG` is recorded as 1.11.
`AACAUUUUGUAACAUUGUGCUUCCUUGUAGUUUGUAAUGUGAGUUCAAUCAGUAUUUAUGUUGAAAUUUCUAACAUUAAAUCUAGUCUCUAUCCUGUUAAUUUAAUUUUU`: “RBNS enrichment (R)” 1.68.
`CAGACCAGCUCCAAGCACUGCUUAGAACAACGGCUCACUCUGACCUUGCUACACAUCCAUUUGGGGUGGACUAUCAGACCAGGCAAGCCAGUCCUAAAGGCUUCUGUGAA` — result for “RBNS enrichment (R)”: 0.193.
Under “RBNS enrichment (R)”, `UGUGACAUCCCCUUCGACCACCAGCUGACCAUGCAUGCCACGUGGCCAGCUGAGUCCAGGACCCUCUCCAGCCCUAUCCCCAUCAAUAAAACUCUGUUUACAUCCACCGG` is recorded as 3.55.
`CGAGCGCUCGGUGUUCACACUGAACUGUGGGGUCGACGGGAGGGGUGCCUUUUACAUGUUCUAUUUUGUAUCCUAAUGACAGAAUGAAUAAACCUCUUUAUAUUUGCACA`: “RBNS enrichment (R)” 0.247.
Under “RBNS enrichment (R)”, `AGAAACUUAGUGUAAUGCCCUGCUUUAUAUUUCUUUGACUUAACAUUGGUUUCAGAAAGAAUCUUAGCUACCUAGAAUUUACAGUCUCUGUUUCAUGGCAACACUGGAUA` is recorded as 0.311.
Under “RBNS enrichment (R)”, `GAGUGUAGUGAAACGGACUCUCAUGUGAACUGGGUGGUUUCCACUAAGAAUGGUUGUGUUUGGAUACUUGUAAAUGCUGUUUAGUUAGAAAAAGCAUGUUAAGUUGGUAU` is recorded as 8.01.
For `AUUACGUGUUGAAUAUUUUGAGUAAGAAGAAAAGAAUCCAUCUUCAGAAUAUAGGGUUGUUCUUUGGGAAAAAGAGUAUAAGAACAUAAUUUCUUUGUCCUAGACUUUAC`, “RBNS enrichment (R)” read 0.534.
For `GGUGAAUCAGUACACUGUGACCAAGGUCCUCAAAUUGGAAUUUGAACAACAAUGUAAAACCUGUUCUGUCACAAAUGUUCCUGAAAGCACCACAGCUACUCAAGAAGAUC`, “RBNS enrichment (R)” read 0.239.
Under “RBNS enrichment (R)”, `GACACUCCAGACAUGGGAGAAGGACUUUCUGGGAACACAGAGACCAAGAGGGAGAGAGGCUUCAGAACCAGUCCUCCUUUCAUUUCAAAACCCCAGCGGGCCCUCUGGAG` is recorded as 0.35.
`UACCUUCCCCAGCGUCCCAGUCUCUGGCAGUUCUGGAAUGGAAGGGUUCUGGCUGCCCCAACCUGCUGAAGGGCAGAGGUGGAGGGUGGGGGGCGCUGAGUAGGGACUCA`: “RBNS enrichment (R)” 0.577.
For `AACGAACGCUGCAGAGUUUACUGAUGUAUAUCAAAGGCCAAUAAGCUCUUUUAAUUGGUGACAGAUCAUGCGGUAUGUCCCUAUUACAAAUGUAAGUCUUGGAGAAGGGU`, “RBNS enrichment (R)” read 0.353.

Set 2
Target: Histone acetyltransferase KAT6A, winged helix 2, GST fusion (KAT6A, Homo sapiens, UniProt Q92794, residues 85-181)
Technique: protein binding microarray
Form: double-stranded DNA, one strand shown
Sample: in vitro
Concentration: not given
Notes: 8-mer, flanks averaged, mean of 2 arrays, mostly near background
Reference: not given
Direction: higher = stronger binding
Target sequence (chain): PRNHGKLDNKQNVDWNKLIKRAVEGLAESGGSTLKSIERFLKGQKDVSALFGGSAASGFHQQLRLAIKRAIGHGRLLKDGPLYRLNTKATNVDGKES
The E-score of `GCGCGTTA` is reported as 0.151.
With `ATTTACCC` the E-score was -0.0533.
For `ACTTTCGG`, the E-score was -0.235.
`GCCTCCCA` gave an E-score of 0.0425.
The E-score of `CGGTATGC` is reported as 0.0291.
`ATGTCCAG` has an E-score of -0.0988.
With `AGAGGCAA` the E-score was 0.00954.
For `ATTTGTCC`, the E-score was -0.0288.
The E-score of `ATGGTCTA` is reported as -0.216.
The E-score of `AACAACGC` is reported as 0.0471.
With `ATAGATCA` the E-score was 0.0459.
`GAACATTA` gave an E-score of -0.116.
With `CACGGCTC` the E-score was 0.0663.
For `AAAACAGT`, the E-score was -0.0564.
`ATCACTGG` has an E-score of -0.0223.
`ACGAGCGC` gave an E-score of -0.0429.
With `ACTGTCAC` the E-score was -0.112.
With `GCTGGTAC` the E-score was 0.0214.
With `ATTTCCAG` the E-score was -0.0498.
`CGTCGCTC` has an E-score of 0.104.
`CCGAGTTA` gave an E-score of -0.065.
`GCGAAAAA` gave an E-score of 0.171.
For `CCGCCAGA`, the E-score was 0.229.
The E-score of `CACGCGCG` is reported as 0.225.
With `ACATATAT` the E-score was -0.0849.

Set 3
Target: TAR DNA-binding protein 43, full length, His tag (TARDBP, Homo sapiens, UniProt Q13148, residues 1-414)
Technique: RNA Bind-n-Seq
Form: RNA
Sample: in vitro
Concentration: 20 nM
Notes: 6-mer, flanks averaged, single round
Added: 150 mM LiCl
Reference: input library
Direction: higher = stronger binding
Under “6-mer enrichment (R)”, `GAAACC` is recorded as 0.806.
For `GAGUAC`, “6-mer enrichment (R)” read 0.9.
Under “6-mer enrichment (R)”, `CUCAAU` is recorded as 0.883.
`GUCAUA` — result for “6-mer enrichment (R)”: 0.89.
`CCCAUC`: “6-mer enrichment (R)” 0.97.
`UUCCCC`: “6-mer enrichment (R)” 1.18.
For `GGCUGU`, “6-mer enrichment (R)” read 1.16.
`AAUCUG` — result for “6-mer enrichment (R)”: 0.851.
Under “6-mer enrichment (R)”, `CUGCAU` is recorded as 0.904.
Under “6-mer enrichment (R)”, `AGCGGU` is recorded as 0.991.
`CCUUAG` — result for “6-mer enrichment (R)”: 0.915.
For `AAUCUU`, “6-mer enrichment (R)” read 0.913.
`AGACUU`: “6-mer enrichment (R)” 0.819.
For `UAACGC`, “6-mer enrichment (R)” read 0.825.
`GCGCUA`: “6-mer enrichment (R)” 0.942.
`UCAACU` — result for “6-mer enrichment (R)”: 0.819.
`CAAAUC` — result for “6-mer enrichment (R)”: 0.83.
For `AAAGAC`, “6-mer enrichment (R)” read 0.769.
For `UCUCCA`, “6-mer enrichment (R)” read 0.912.
Under “6-mer enrichment (R)”, `AGCUAG` is recorded as 0.892.
Under “6-mer enrichment (R)”, `UCAUCG` is recorded as 0.82.
`AUAGGU` — result for “6-mer enrichment (R)”: 0.981.
`CCGAGG` — result for “6-mer enrichment (R)”: 0.991.
For `AGGUGC`, “6-mer enrichment (R)” read 1.05.
Under “6-mer enrichment (R)”, `GGUUCG` is recorded as 1.01.

Set 4
Target: RING finger protein unkempt homolog, zinc fingers 1-6, GST-SBP tag (UNK, Homo sapiens, UniProt Q9C0B0, residues 30-357)
Chain of UniProt Q9C0B0 (30-357, looked up): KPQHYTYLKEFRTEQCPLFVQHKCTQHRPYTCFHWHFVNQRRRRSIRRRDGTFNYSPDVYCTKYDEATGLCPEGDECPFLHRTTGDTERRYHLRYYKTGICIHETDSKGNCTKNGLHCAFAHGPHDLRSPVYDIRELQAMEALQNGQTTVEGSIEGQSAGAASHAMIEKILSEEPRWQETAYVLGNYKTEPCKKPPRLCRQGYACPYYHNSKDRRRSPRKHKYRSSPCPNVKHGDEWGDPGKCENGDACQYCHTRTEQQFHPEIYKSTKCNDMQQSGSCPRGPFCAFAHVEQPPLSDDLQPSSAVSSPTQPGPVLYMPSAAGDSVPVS
Technique: RNA Bind-n-Seq
Form: RNA
Sample: in vitro
Concentration: not given
Notes: RNA with constant flanks, human-mouse chimeric sites, ends assumed
Reference: input RNA pool
Direction: higher = stronger binding
Constant ends, left off below: GGGAGUUCUACAGUCCGACGAUC … CAACAGAGGAUUGAGCAUCA
For `AUAGAUGAAAUUGAUGUAGAUCAGGAAGGAAUUGCUGAAAUGAUCCUGGAUGAAAAUGCUAUUGCUCAGGUCCCACGCCCUGGCACAUCUUUGAAGCUCCCUGGAACUAACCAAACAGGA`, the bound/input enrichment was 0.461 ratio.
`GCGGCAGAAUCAUGGAGGACAUAAUGCAGCUCCCCAAAGCGCGCGUCAACGCCAGCAUGUUACCACAGUAUAUCGACAAGCCUGUCUGCUUCGUGGGGAGGCUGGAAAAGAUUCAUCCCA` gave a bound/input enrichment of 0.162 ratio.
With `UUUGUAUUUAUGCUAAGCACACGUGCUGGUGGUCUUGGCAUCAAUCUUGCAACUGCUGAUGUAGUCAUUUUAUAUGACUCAGAUUGGAAUCCGCAAGUAGAUCUUCAGGCUAUGGACCGU` the bound/input enrichment was 0.144 ratio.
The bound/input enrichment of `UUCAAAGAAAAGGGCAGCUGUGUCAUUUCAUAAGUAACUCUGGGGGAUAAGUGGAAGGUUCUUUUGUUUAAUUUUCCCCCAAAUGAAGCCAAAGUGUUUUUUAAGGAACUGAGAAAAAAU` is reported as 0.169 ratio.
For `UCUUAACUUAUUCAUUUCUUAUUUUUAUAUAGCUAGAUAAAUAUUGUUAGUCUUAGACAAUAGCUCACAUCUUUACAGAAGCAUGCCCUCCCUGUCCAUUUGUCUUAUAACAUGACCCAG`, the bound/input enrichment was 65.5 ratio.
`AAAGAACCUCUCUCUGAUGAAGAUGAGGAAGACAAUGAUGAUGUUGAACCCAUUUCUGAAUUUCGAUUUGUGCCCAGUGAUAAGUCAGCGUUGGAGGCAAUGUUCACAGCAAUGUGUGAG` has a bound/input enrichment of 0.199 ratio.
With `AAGGUGAUGACUAUGUUUGUACAGCGACAGGUAUUUUCGGAGAGCAAAGAUGAGAUUGCGUUAGUCCUCUAUGGCACAGAUGGCACUGAUAAUGCCCUUGCUGGCAAGGACCAGUAUCAG` the bound/input enrichment was 0.182 ratio.
With `GGCUGCUGGUGACUGUCGGGAGCCGUCUGGAGUUCCCGCCGGAGCGCGGCCAGACUAAUUUUAGAAAAUGCCAAGUAGGAAGUUUGUUGAGGGUGAAGUGGUCAGAGGUCGAUGGCCUGG` the bound/input enrichment was 2.5 ratio.

Set 5
Target: Centromere-binding protein 1, full length, N-terminal tag (CBF1, Saccharomyces cerevisiae, UniProt P17106, residues 1-351)
Chain of UniProt P17106 (whole entry, looked up): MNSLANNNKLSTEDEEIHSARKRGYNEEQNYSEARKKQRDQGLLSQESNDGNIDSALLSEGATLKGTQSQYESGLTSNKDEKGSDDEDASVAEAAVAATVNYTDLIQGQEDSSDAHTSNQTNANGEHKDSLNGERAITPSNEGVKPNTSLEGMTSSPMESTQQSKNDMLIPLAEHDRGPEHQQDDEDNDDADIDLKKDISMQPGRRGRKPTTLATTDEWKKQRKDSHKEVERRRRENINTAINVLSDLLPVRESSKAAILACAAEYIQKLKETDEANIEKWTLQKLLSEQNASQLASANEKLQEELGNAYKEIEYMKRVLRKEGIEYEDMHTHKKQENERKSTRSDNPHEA
Technique: protein-binding microarray
Form: double-stranded DNA, one strand shown
Sample: in vitro
Concentration: 0.8 µM
Notes: whole 60-bp probe, no competitor
Direction: higher = stronger binding
Constant ends, left off below: … GTCTTGATTCGCTTGACGCTGCTG
The fluorescence intensity of `CTATCTCGCAGTTGTCACGTGCAATTTGATACATTC` is reported as 12700 a.u.
`GAAGTTTCCCGTAGTGATGACGTACGTGTATAGTAG` has a fluorescence intensity of 526 a.u.
`CCTAACTACTATAACCACGTTAAATAGCTTCGTACA` has a fluorescence intensity of 523 a.u.
`GAATTAGCTTCTTTTCGGGTGATGTCACTTAAATAG` gave a fluorescence intensity of 544 a.u.
For `CTAAAATTCCTCCTTCACGTTCTGTTGAAGGGATTC`, the fluorescence intensity was 555 a.u.
With `GAATTGATCACTTTACACGTCAAGGTCAAAACATAG` the fluorescence intensity was 558 a.u.
`CTAGAATCCGAGAATCACATGAGGTTTGGGATATTC` has a fluorescence intensity of 705 a.u.
`GAAATCTTCCGATGGCGCGTGCGTCTATTGTAGTAG` gave a fluorescence intensity of 605 a.u.
`CTAGTATGCAGCGCAGCCGTGACCTCCCGGATATTC` has a fluorescence intensity of 592 a.u.
With `GAAGCCGCGGAGTGAGATCACATGTCATATTGATAG` the fluorescence intensity was 3860 a.u.
`CTAGATCGTCAGTTTCACGTTCGCGGTTCGAACTTC` has a fluorescence intensity of 531 a.u.
With `GAATATATATGCTAGTACAACACGTTTGGTTGATAG` the fluorescence intensity was 519 a.u.
`CCTAACTACTATACCAACACGCAATAGCTTCGTACA` has a fluorescence intensity of 518 a.u.
`CTATCAATTCTTCATCACCACCGTTCCATGCCCTTC` has a fluorescence intensity of 551 a.u.
For `CTACATTATGATGTACACCTCACGTTAGTGCAATTC`, the fluorescence intensity was 584 a.u.
`GAAGAGTCAATGAGTGGTGTGACCCCAATACCATAG` gave a fluorescence intensity of 1090 a.u.
`CTAGCGAGTATTCATCACCTAAGCGTCCTGTAGTTC` gave a fluorescence intensity of 526 a.u.
For `CTACTAGTATTCAATCACGTAAGGTGGAAGAGATTC`, the fluorescence intensity was 582 a.u.
`GAACTAGACCCGCACGTGACCACTTCGAGAGCATAG` has a fluorescence intensity of 22100 a.u.
With `CTATTCGTCCGACGTGATCTGGAAAATACGCGCTTC` the fluorescence intensity was 1010 a.u.
`CTACCTGCTGGTAATCTCAGCTGAAAGGCTGCCTTC` has a fluorescence intensity of 481 a.u.
With `GAAAATATGTAGGTAAACGTGTCCATAAAATGGTAG` the fluorescence intensity was 716 a.u.
`GAATAAAAGTTCAAACACGTTTTTAAGTATTGTTAG` has a fluorescence intensity of 605 a.u.

A few entries again (set 2):
`GCCTCCCA` gave an E-score of 0.0425.
The E-score of `CGGTATGC` is reported as 0.0291.
`ATGTCCAG` has an E-score of -0.0988.
With `AGAGGCAA` the E-score was 0.00954.
For `ATTTGTCC`, the E-score was -0.0288.
The E-score of `ATGGTCTA` is reported as -0.216.
The E-score of `AACAACGC` is reported as 0.0471.
With `ATAGATCA` the E-score was 0.0459.
`GAACATTA` gave an E-score of -0.116.
With `CACGGCTC` the E-score was 0.0663.
For `AAAACAGT`, the E-score was -0.0564.
`ATCACTGG` has an E-score of -0.0223.
